# Measured values from different studies.
# “And” joins repeats or separate records; there may be more than shown. Numbers after ± are the reported error.
Structure (SMILES),tested on,assay,test system,conditions,how to read,quantity,result
N#C[C@@H]1CC(F)(F)CN1C(=O)CNC(=O)c1ccnc2ccc(OCCCN3CCN(C(=O)CCc4ccc(O)c(CN5CCN6CC(=O)[O][Al-]([18F])([O]C(=O)C5)[O]c5ccc(CCC(=O)N7CCN(CCCOc8ccc9nccc(C(=O)NCC(=O)N%10CC(F)(F)C[C@H]%10C#N)c9c8)CC7)cc5C6)c4)CC3)cc12 (stereo partly drawn),HT1080 cells expressing human FAP,,,"60 min, 37 °C",,internalized fraction,81.4 ± 3.2%
CN1CCCNC(=O)c2cccc(c2)C(=O)NCCCN(C)CCCNc2cccc3c2C(=O)c2cccc(c2C3=O)NCCC1,SAS,"RNA-Seq, measured: PAWR mRNA",,"1 µM, 6 h",baseline: untreated cells,log2 fold change,-0.4
CC(=O)N[C@@H](Cc1c[nH]c2ccccc12)C(=O)N[C@@H](CCC(=O)O)C(=O)N[C@@H](C)C(=O)N[C@@H](CC(=O)O)C(=O)COC(=O)c1c(C)cccc1C,"THP-1 cells, LPS-primed","pyroptosis, LDH release",,"25 µM, LPS 1 µg/mL, 4 h, together with: nigericin 5 µM, 2 h",,cell lysis,29.8% and 44.5%
CN(C)c1cccc(-c2ccc([C@H]3[C@@H](F)[C@@H](F)C[C@@H](F)[C@H]3F)cc2)c1,,liver microsome stability,dog liver microsomes,1 µM,,hepatic clearance,28 mL/min/kg
COc1cccc(CNC[C@](O)(COCc2ccccc2)[C@@H]2CC[C@@H](C)C[C@H]2OCc2ccccc2)c1,A2780,"cell growth or viability, MTT",,"30 µM, 72 h",,inhibition,99.1%
Cc1ncsc1-c1ccc(C(C)NC(=O)C2CC(O)CN2C(=O)C(NC(=O)CCCCCCCCCCN2CCCC(Nc3ncc(Cl)c(Nc4ccccc4S(=O)(=O)C(C)C)n3)C2)C(C)(C)C)cc1 (stereo not drawn),22Rv1,"RNA-seq, measured: TLN2 mRNA",,concentration not given,baseline: DMSO,log2 fold change,-1.59
CCC(=CCc1c(O)cc2c(c1O)C(=O)CC(c1cccc(O)c1OC)O2)CC (stereo not drawn),HeLa,"cell growth or viability, MTT",,"0.781 µM, 48 h",,inhibition,0.632%
CN(C12CCCC(C)(CCC3C1CC3(C)C)C2)S(=O)(=O)c1ccccc1 (stereo not drawn),HT-29,"cell growth or viability, CCK-8",,50 µM,,inhibition,47%
CCC(=CCc1c(O)cc2c(c1O)C(=O)CC(c1cccc(O)c1)O2)CC (stereo not drawn),HeLa,"cell growth or viability, MTT",,"12.5 µM, 48 h",,inhibition,18.5%
CCN(CC)CC(=O)Nc1cccc(-n2cc(-c3ccc4ccc(-c5cn(-c6cccc(NC(=O)CN(CC)CC)c6)nn5)cc4c3)nn2)c1,RCC4,"PCR angiogenesis array, measured: IFNA1",,"5 x IC50, 4 h, normoxia",baseline: untreated,fold regulation,-1.49
O=S(=O)(N[C@H]1CCO[C@@H](C2c3ccccc3CCc3ccccc32)C1)c1ccc(OC(F)(F)F)cc1,D341,CellTiter,,"concentration not given, 72 h",,cell proliferation,decreased
CN1CCN(Cc2ccc(C(=O)Nc3ccc4c(/C=C/c5ccccn5)n[nH]c4c3)cc2)CC1,BaF3,"cell growth or viability, CCK-8",,,,GI50,590 nM
COc1ccccc1-c1ccncc1C(=O)Nc1nnc(OCc2ccc(Cl)cc2)s1,Brca1 Δ11/Δ11 MEFs sgGFP,,,5 µM,,colony count,27 and 50 and 30 and 38 and 47 and 54
O=S(=O)(Nc1ccc(OC(F)(F)F)cc1)N1CCCC(C2c3ccccc3CCc3ccccc32)C1 (stereo not drawn),D425,Transwell,,"1.5 µM, 24 h",,cell migration,decreased
COc1ncccc1CN(C(=O)OCc1ccc([N+](=O)[O-])cc1)[C@H]1C[C@@H]1c1ccccc1 (racemic),THP-1 wild type cells,MTS,,72 h,,GI50,> 50000 nM
CNS(=O)(=O)Nc1nccc(Cc2c(C)c3ccc(Oc4ncccc4F)cc3oc2=O)c1F,NCI-H1299,cell viability,,7 days,,IC50,> 1000 nM
CC(=O)N1CCC[C@H]1C(=O)N[C@H](C(=O)NCC(=O)N[C@@H](CC(=O)O)C(=O)COC(=O)c1c(C)cccc1C)C(C)(C)C,"THP-1 cells, LPS-primed","pyroptosis, LDH release",,"25 µM, LPS 1 µg/mL, 4 h, together with: nigericin 5 µM, 2 h",,cell lysis,26.1% and 51.7%
CC12CCCC(NC(=O)c3ccc4ccccc4c3)(C1)C1CC(C)(C)C1CC2 (stereo not drawn),HT-29,"cell growth or viability, CCK-8",,10 µM,,inhibition,< 50%
CC(C)c1ccc(N(C)c2ccc3c(c2)OCC[C@H]3CNc2cnccc2C(=O)O)cc1,TE-6,"cell growth or viability, ATP luminescence",,7 days,,IC50,6.68 nM
CC(C)CC(=O)Nc1ccc([C@H]2[C@@H](F)[C@@H](F)C[C@@H](F)[C@H]2F)cc1,,liver microsome stability,rat liver microsomes,1 µM,,hepatic clearance,23 mL/min/kg
CCc1c(-c2ccc3[nH]ncc3c2)cnc(N)c1-c1ccc(O)cc1,"CHP-212 resistant sublines, USP7 V517F heterozygous",,,50 µM,,viability,6.92%

# For quick reference, copied from above:
Structure (SMILES),tested on,assay,test system,conditions,how to read,quantity,result
CN1CCN(Cc2ccc(C(=O)Nc3ccc4c(/C=C/c5ccccn5)n[nH]c4c3)cc2)CC1,BaF3,"cell growth or viability, CCK-8",,,,GI50,590 nM
CC(=O)N1CCC[C@H]1C(=O)N[C@H](C(=O)NCC(=O)N[C@@H](CC(=O)O)C(=O)COC(=O)c1c(C)cccc1C)C(C)(C)C,"THP-1 cells, LPS-primed","pyroptosis, LDH release",,"25 µM, LPS 1 µg/mL, 4 h, together with: nigericin 5 µM, 2 h",,cell lysis,26.1% and 51.7%
CC(=O)N[C@@H](Cc1c[nH]c2ccccc12)C(=O)N[C@@H](CCC(=O)O)C(=O)N[C@@H](C)C(=O)N[C@@H](CC(=O)O)C(=O)COC(=O)c1c(C)cccc1C,"THP-1 cells, LPS-primed","pyroptosis, LDH release",,"25 µM, LPS 1 µg/mL, 4 h, together with: nigericin 5 µM, 2 h",,cell lysis,29.8% and 44.5%
